Experimental data collected from several papers.
Parts stem from different laboratories: compare values within a part only. Values joined by “and” are separate records of one study, mostly repeats; a detail may differ.
UniProt P36894, sequence (whole entry, looked up): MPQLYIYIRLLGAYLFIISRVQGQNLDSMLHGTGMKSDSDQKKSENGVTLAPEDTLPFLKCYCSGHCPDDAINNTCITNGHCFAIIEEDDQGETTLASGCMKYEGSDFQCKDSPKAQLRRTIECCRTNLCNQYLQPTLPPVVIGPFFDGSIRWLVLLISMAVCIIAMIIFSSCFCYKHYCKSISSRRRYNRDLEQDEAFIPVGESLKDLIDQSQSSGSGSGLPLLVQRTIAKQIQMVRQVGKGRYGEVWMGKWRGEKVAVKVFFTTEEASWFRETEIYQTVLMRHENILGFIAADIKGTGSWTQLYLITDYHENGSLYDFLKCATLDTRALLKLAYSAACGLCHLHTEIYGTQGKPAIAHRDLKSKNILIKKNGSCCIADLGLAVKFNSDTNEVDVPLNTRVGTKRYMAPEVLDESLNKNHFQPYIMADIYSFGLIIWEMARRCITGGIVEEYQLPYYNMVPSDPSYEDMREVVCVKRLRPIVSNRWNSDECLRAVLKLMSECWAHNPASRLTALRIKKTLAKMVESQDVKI
UniProt Q96Q40, sequence (whole entry, looked up): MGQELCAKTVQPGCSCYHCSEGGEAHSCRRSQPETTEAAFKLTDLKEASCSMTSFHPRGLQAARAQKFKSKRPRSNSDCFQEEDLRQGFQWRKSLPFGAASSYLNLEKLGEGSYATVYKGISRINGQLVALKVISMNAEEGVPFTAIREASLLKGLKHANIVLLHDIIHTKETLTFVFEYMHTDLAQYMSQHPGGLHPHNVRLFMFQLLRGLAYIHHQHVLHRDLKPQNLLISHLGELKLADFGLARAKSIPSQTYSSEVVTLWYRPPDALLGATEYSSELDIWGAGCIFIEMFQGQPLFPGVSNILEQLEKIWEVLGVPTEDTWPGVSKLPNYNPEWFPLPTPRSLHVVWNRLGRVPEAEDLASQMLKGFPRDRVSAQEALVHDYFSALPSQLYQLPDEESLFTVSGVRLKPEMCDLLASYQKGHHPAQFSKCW
UniProt Q59H18, sequence (whole entry, looked up): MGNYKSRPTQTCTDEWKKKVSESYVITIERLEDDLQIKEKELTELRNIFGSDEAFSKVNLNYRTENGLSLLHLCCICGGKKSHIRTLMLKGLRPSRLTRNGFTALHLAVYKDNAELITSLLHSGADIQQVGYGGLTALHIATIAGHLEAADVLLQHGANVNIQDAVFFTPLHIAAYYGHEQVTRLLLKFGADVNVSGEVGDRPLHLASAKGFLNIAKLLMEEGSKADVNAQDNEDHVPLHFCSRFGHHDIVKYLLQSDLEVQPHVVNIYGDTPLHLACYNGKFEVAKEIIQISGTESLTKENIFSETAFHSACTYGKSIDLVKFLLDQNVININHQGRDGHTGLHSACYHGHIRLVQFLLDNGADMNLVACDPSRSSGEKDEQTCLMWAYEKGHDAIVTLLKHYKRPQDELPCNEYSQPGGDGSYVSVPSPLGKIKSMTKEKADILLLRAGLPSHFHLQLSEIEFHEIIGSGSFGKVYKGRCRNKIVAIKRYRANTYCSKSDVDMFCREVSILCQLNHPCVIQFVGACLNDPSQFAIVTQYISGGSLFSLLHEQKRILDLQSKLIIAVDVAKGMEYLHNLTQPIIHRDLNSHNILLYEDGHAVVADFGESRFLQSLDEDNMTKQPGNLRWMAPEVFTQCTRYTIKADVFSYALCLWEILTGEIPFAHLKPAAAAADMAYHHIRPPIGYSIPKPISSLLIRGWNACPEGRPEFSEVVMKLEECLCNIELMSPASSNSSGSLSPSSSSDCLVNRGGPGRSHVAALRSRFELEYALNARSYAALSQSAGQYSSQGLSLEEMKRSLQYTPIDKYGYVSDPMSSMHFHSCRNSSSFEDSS
UniProt O14757, sequence (whole entry, looked up): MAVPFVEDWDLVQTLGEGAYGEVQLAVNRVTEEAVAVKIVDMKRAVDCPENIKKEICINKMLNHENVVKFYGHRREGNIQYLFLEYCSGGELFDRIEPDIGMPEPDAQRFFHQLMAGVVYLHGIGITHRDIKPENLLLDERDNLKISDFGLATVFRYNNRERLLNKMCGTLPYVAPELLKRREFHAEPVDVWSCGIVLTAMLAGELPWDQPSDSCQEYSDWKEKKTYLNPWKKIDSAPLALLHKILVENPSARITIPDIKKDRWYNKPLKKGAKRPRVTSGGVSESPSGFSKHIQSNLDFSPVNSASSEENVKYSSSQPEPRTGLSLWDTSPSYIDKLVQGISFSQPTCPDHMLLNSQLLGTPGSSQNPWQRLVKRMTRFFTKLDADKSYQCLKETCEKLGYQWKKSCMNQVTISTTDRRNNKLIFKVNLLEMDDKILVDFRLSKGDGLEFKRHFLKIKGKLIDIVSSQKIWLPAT

Set 1
Cell line: mouse MPNST tumor cells
Technique: high-content nuclear imaging
Item: cell number
Concentration: 10 µM
Time: 12 h
Setting: mean of 2 replicates
Reference: plate mean
Direction: higher = more cells
Compound	nuclei count
CS(=O)(=O)c1ccc(C2=C(c3ccccc3)C(=O)OC2)cc1	0.638 z-score
O=C(CC12CC3CC(CC(C3)C1)C2)Nc1cccc2nc(NCCNCCO)ccc12	4.31 z-score
C[C@H](N[C@@H](CCc1ccccc1)C(=O)O)C(=O)N1CCC[C@H]1C(=O)O	0.658 z-score and 1.24 z-score
COc1cc(NC(C)CCCN)c2ncccc2c1 (stereo not shown)	-2.1 z-score
Cc1nnsc1C(=O)Nc1ccc(-n2nc(C(F)(F)F)cc2C(F)(F)F)cc1	1.07 z-score

Set 2
Compound: CCC(=N\O)/C(C)=C/c1ccc(F)cc1
Technique: competition with immobilised ligand
Concentration: 1 µM
target	test	remaining binding [%]
CAMK2D (Homo sapiens, UniProt Q13557)	cell-free assay	99
PRKACB (Homo sapiens, UniProt P22694)	cell-free assay	89
CDK15 (Homo sapiens, UniProt Q96Q40)	cell-free assay	80
LRRK2 (Homo sapiens, UniProt Q5S007, G2019S)	cell-free assay	100
CDK11A (Homo sapiens, UniProt Q9UQ88)	binding	94
FLT3 (Homo sapiens, UniProt P36888)	cell-free assay	100
FLT1 (Homo sapiens, UniProt P17948)	cell-free assay	87
EGFR (Homo sapiens, UniProt P00533, L858R/T790M)	cell-free assay	100
TNNI3K (Homo sapiens, UniProt Q59H18)	cell-free assay	70
DSTYK (Homo sapiens, UniProt Q6XUX3)	cell-free assay	66
STK32A (Homo sapiens, UniProt Q8WU08)	cell-free assay	100
EGFR (Homo sapiens, UniProt P00533, A750P/del747-749)	cell-free assay	69
CSNK1G2 (Homo sapiens, UniProt P78368)	cell-free assay	87
ABL2 (Homo sapiens, UniProt P42684)	cell-free assay	82
CDK2 (Homo sapiens, UniProt P24941)	cell-free assay	82
PIP5K1A (Homo sapiens, UniProt Q99755)	cell-free assay	97
EIF2AK2 (Homo sapiens, UniProt P19525)	cell-free assay	100
FLT3 (Homo sapiens, UniProt P36888, N841I)	cell-free assay	74
KIT (Homo sapiens, UniProt P10721, D816H)	cell-free assay	65
EGFR (Homo sapiens, UniProt P00533, G719C)	cell-free assay	64
MKNK1 (Homo sapiens, UniProt Q9BUB5)	cell-free assay	56
CHEK1 (Homo sapiens, UniProt O14757)	cell-free assay	83
IKBKE (Homo sapiens, UniProt Q14164)	cell-free assay	94
BMPR1A (Homo sapiens, UniProt P36894)	binding	86
VRK2 (Homo sapiens, UniProt Q86Y07)	cell-free assay	74

Set 3
Cell line: Huh-7
Concentration: 10 µM
Time: 24 h
Structure (SMILES)	viability
Cc1cc(O)cc(C)c1Cl	103%
Nc1ncnc2c1ncn2[C@@H]1O[C@H](CO)[C@@H](O)[C@@H]1O	84.1%
O=C1c2ccccc2C(=O)C1c1ccccc1	102%
C1CNCCN1	101%

Set 4
Cell line: A-375
Concentration: 100 µM
Time: 36 h
SMILES	viability
COc1nc(C)nc(Cl)c1N=C1NCCN1	105%
Cn1c(=O)c2c(ncn2CCO)n(C)c1=O	102%
CC[C@]1(O)C[C@@H]2CN(CCc3c([nH]c4ccccc34)[C@@](C(=O)OC)(c3cc4c(cc3OC)N(C)[C@H]3[C@@](O)(C(=O)OC)[C@H](OC(C)=O)[C@]5(CC)C=CCN6CC[C@]43[C@@H]65)C2)C1	11.2%
CC[C@]1(O)C[C@H]2CN(CCc3c([nH]c4ccccc34)[C@@](C(=O)OC)(c3cc4c(cc3OC)N(C=O)[C@H]3[C@@](O)(C(=O)OC)[C@H](OC(C)=O)[C@]5(CC)C=CCN6CC[C@]43[C@@H]65)C2)C1	18.4%
O=C(O)C[C@H](O)C[C@H](O)/C=C/c1c(C2CC2)nc2ccccc2c1-c1ccc(F)cc1	44.8%

Set 5
Target: DNA polymerase theta, ATPase domain (POLQ, Homo sapiens, UniProt O75417)
UniProt O75417, sequence (whole entry, unmodified, looked up): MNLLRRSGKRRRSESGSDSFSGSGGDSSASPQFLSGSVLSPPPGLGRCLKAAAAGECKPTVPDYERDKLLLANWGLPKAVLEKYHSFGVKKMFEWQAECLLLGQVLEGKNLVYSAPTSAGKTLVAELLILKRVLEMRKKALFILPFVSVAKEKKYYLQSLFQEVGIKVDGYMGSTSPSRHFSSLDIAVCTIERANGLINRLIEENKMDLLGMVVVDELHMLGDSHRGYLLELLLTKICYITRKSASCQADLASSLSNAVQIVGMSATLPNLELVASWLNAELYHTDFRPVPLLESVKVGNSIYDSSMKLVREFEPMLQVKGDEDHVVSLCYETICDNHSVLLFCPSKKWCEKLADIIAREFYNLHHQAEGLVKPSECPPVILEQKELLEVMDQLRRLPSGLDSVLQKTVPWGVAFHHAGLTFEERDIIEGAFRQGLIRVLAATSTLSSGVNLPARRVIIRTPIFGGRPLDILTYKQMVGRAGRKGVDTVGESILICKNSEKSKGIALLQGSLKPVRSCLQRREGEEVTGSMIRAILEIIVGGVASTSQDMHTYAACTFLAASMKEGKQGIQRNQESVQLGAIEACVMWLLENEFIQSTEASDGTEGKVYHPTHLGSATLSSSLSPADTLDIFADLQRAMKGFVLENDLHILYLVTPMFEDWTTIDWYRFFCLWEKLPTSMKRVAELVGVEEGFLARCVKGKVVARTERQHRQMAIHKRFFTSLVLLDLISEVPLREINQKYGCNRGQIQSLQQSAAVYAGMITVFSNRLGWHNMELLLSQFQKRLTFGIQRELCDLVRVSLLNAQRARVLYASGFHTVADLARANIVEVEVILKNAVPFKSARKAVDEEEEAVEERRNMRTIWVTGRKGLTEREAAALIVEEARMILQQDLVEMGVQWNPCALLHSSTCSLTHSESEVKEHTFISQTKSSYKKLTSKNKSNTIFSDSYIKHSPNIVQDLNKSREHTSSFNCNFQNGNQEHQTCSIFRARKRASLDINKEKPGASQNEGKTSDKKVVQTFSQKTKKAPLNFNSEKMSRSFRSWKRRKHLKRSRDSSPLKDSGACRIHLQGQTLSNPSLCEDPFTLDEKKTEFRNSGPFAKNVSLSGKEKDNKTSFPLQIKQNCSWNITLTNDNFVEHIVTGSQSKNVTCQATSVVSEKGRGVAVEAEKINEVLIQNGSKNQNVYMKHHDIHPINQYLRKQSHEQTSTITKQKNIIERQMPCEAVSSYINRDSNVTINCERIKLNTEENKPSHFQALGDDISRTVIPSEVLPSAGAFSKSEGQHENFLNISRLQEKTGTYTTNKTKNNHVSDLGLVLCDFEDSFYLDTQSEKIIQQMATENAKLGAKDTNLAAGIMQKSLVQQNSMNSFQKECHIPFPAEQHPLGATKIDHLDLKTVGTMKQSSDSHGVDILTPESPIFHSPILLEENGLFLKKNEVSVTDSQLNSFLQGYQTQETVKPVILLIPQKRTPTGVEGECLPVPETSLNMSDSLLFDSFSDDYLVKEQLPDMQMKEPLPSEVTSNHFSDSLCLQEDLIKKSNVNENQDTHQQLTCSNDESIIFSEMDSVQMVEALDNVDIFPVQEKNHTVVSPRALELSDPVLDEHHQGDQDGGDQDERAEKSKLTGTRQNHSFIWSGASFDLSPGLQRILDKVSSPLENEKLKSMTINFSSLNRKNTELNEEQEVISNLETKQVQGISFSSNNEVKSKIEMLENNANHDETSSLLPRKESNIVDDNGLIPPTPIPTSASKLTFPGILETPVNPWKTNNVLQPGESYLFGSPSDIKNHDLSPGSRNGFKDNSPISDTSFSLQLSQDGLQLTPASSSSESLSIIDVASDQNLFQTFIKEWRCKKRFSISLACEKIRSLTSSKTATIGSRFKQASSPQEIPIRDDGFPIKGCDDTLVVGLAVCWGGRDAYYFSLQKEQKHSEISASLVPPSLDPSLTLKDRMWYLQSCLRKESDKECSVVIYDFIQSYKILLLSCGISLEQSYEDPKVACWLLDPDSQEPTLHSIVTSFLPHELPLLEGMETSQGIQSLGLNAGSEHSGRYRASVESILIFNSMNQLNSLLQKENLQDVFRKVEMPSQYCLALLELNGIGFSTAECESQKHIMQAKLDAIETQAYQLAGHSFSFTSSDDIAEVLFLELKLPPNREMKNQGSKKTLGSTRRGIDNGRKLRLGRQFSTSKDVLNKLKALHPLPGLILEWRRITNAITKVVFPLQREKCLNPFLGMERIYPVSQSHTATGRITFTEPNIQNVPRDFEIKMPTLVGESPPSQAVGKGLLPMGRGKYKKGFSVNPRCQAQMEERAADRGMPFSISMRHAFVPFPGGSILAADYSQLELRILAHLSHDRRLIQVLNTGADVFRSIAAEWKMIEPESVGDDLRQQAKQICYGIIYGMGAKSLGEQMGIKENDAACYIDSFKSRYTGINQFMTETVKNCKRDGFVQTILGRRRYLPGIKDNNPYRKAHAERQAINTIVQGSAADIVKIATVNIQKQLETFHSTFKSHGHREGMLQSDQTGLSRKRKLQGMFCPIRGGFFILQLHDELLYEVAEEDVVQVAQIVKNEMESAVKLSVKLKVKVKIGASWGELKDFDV
Read-out: enzyme activity
Action: inhibitor
Concentration: 77 µM
Reference: untreated
SMILES	remaining activity
CC(C)(O/N=C(\C(=O)N[C@@H]1C(=O)N2C(C(=O)[O-])=C(C[n+]3ccccc3)CS[C@H]12)c1csc(N)n1)C(=O)O	93.2%
NS(=O)(=O)c1cc2c(cc1Cl)NC(CC1CCCC1)NS2(=O)=O (stereo not shown)	101%
NC(=O)c1cnc(N[C@@H]2CCCC[C@@H]2N)nc1Nc1cccc(-n2nccn2)c1	98.2%

Set 6
Species: mouse
Medium: microsomes or S9
Concentration: 2 µM
Time: 0.5 h
SMILES	remaining compound
COC(=O)c1ccc(Cn2cc(-c3nc(-c4cnccn4)no3)ccc2=O)o1	46%
COC(=O)c1cc(Cl)ccc1C1CCN(CC(=O)N2CCc3ccccc32)CC1	1.16%
COc1cc(=O)[nH]cc1C(=O)N1CCCC(N2CCOCC2)C1 (stereo not shown)	80.3%
CCOC(=O)N1CCN(S(=O)(=O)c2c(C)c(C)c(C)c(C)c2C)CC1	2.5%
CCOCCCn1nnc2c(O)nc(C(=O)NCc3cccc(Cl)c3)nc21	29.6%
Cc1ccc(S(=O)(=O)N2CCN(c3ncnc4c3nnn4Cc3ccccc3)CC2)cc1	1.41%

Set 7
Read-out: AlphaScreen signal
Technique: AlphaScreen counter screen
Medium: His6 peptide without bromodomain
Concentration: 50 µM
Setting: assay interference check
Structure (SMILES)	inhibition
CCCS(=O)(=O)Nc1ccc(F)c(C(=O)c2c[nH]c3ncc(-c4ccc(Cl)cc4)cc23)c1F	31.1%
N#CC(=Cc1ccncc1)c1nc2ccccc2o1	18.4%
O=C(O)c1cc(NCc2cc(O)ccc2O)ccc1O	9.35%
Cc1ccc(NC(=O)c2ccc(CN3CCN(C)CC3)cc2)cc1Nc1nccc(-c2cccnc2)n1	26.2% and 17.9%

Some of these lines once more (set 2):
target	test	remaining binding [%]
MKNK1 (Homo sapiens, UniProt Q9BUB5)	cell-free assay	56
CHEK1 (Homo sapiens, UniProt O14757)	cell-free assay	83
IKBKE (Homo sapiens, UniProt Q14164)	cell-free assay	94
